Assay results from different studies.
Each line is one published result; not all experiments were run side by side. Converted amounts (≈) assume the structure as drawn.
Organism: Staphylococcus aureus

CCCCCCCCOc1c(OC)cc(NC(C)CCCNC(=O)C(N)C(C)CC)c2nc(C(C)(C)C)ccc12 (centres unmarked)  IC50 (microbial growth; ATCC33591 MRSA; drug-resistant strain): 15.3 µg/mL (≈ 27.5 µM)
CC[C@H](C)[C@H](NC(=O)[C@@H](NC(=O)CN)C(C)C)C(=O)N[C@@H](Cc1ccccc1)C(=O)N[C@@H](CC(N)=O)C(=O)N[C@@H](C)C(=O)N[C@@H](CC(C)C)C(=O)N[C@@H](CCCCN)C(=O)NCC(=O)N[C@H](C(=O)N[C@@H](C)C(=O)N[C@@H](CCCCN)C(=O)N[C@H](C(=O)N[C@H](C(=O)N[C@@H](C)C(=O)N[C@@H](C)C(=O)N[C@@H](CCC(N)=O)C(=O)N[C@@H](CC(C)C)C(=O)N[C@@H](CC(C)C)C(=O)N[C@@H](CCCCN)C(=O)N[C@@H](CCCCN)C(N)=O)C(C)C)[C@@H](C)O)C(C)C  MBEC (persister cells in biofilm; MRSA NCTC 12493; with: vancomycin 4 µg/mL): 64 µM
CC[C@H](C)[C@H](NC(=O)CNC(=O)[C@H](CCC(=O)O)NC(=O)[C@H](CO)NC(=O)[C@@H](NC(=O)[C@H](CCCNC(=N)N)NC(=O)[C@H](CCCCN)NC(=O)[C@H](CCCCN)NC(=O)[C@H](C)NC(=O)[C@H](CO)NC(=O)[C@H](CC(N)=O)NC(=O)[C@H](CCC(=O)O)NC(=O)[C@H](CC(C)C)NC(=O)[C@H](CCCCN)NC(=O)[C@H](CCCCN)NC(=O)[C@H](C)NC(=O)[C@@H](NC(=O)[C@H](CCCCN)NC(=O)[C@H](CO)NC(=O)[C@H](CC(C)C)NC(=O)[C@H](Cc1c[nH]c2ccccc12)NC(=O)[C@@H](N)CO)[C@@H](C)O)[C@@H](C)CC)C(=O)N[C@@H](C)C(=O)N[C@H](C(=O)N[C@@H](C)C(=O)N[C@H](C(=O)N[C@@H](CCC(N)=O)C(=O)NCC(=O)NCC(=O)N1CCC[C@H]1C(=O)N[C@@H](CCCNC(=N)N)C(=O)O)[C@@H](C)CC)[C@@H](C)CC  MIC50 (broth microdilution; methicillin-resistant clinical isolates, Mueller-Hinton broth; 18 h, 35 °C): 32 µg/mL (≈ 9.58 µM)
CC[C@H](C)[C@H](NC(=O)CN)C(=O)NCC(=O)N[C@@H](C)C(=O)N[C@H](C(=O)N[C@@H](CC(C)C)C(=O)N[C@@H](CCCCN)C(=O)N[C@H](C(=O)N[C@@H](CC(C)C)C(=O)N[C@H](C(=O)N[C@H](C(=O)NCC(=O)N[C@@H](CC(C)C)C(=O)N1CCC[C@H]1C(=O)N[C@@H](C)C(=O)N[C@@H](CC(C)C)C(=O)N[C@H](C(=O)N[C@@H](CO)C(=O)N[C@@H](Cc1c[nH]c2ccccc12)C(=O)N[C@H](C(=O)N[C@@H](CCCCN)C(=O)N[C@@H](CCCNC(=N)N)C(=O)N[C@@H](CCCCN)C(=O)N[C@@H](CCCNC(=N)N)C(=O)N[C@@H](CCC(N)=O)C(=O)N[C@@H](CCC(N)=O)C(N)=O)[C@@H](C)CC)[C@@H](C)CC)[C@@H](C)O)[C@@H](C)O)C(C)C)C(C)C  MBC (ATCC 8530): 2 µM (≈ 5.69 µg/mL)
vancomycin  ED50 (10, female SHK mice, sepsis; intravenous, 30 min after infection, 10 days observation): 4.1 mg/kg
CC[C@H](C)[C@H](NC(=O)[C@H](CCCCN)NC(=O)[C@H](CCC(=O)O)NC(=O)[C@H](CCCCN)NC(=O)[C@H](CO)NC(=O)[C@H](CCCCN)NC(=O)[C@H](CCCNC(=N)N)NC(=O)[C@H](Cc1ccccc1)NC(=O)[C@H](Cc1ccccc1)NC(=O)[C@H](CC(=O)O)NC(=O)CNC(=O)[C@H](CC(C)C)NC(=O)[C@@H](N)CC(C)C)C(=O)NCC(=O)N[C@@H](CCCCN)C(=O)N[C@@H](CCC(=O)O)C(=O)N[C@@H](Cc1ccccc1)C(=O)N[C@@H](CCCCN)C(=O)N[C@@H](CCCNC(=N)N)C(=O)N[C@H](C(=O)N[C@H](C(=O)N[C@@H](CCC(N)=O)C(=O)N[C@@H](CCCNC(=N)N)C(=O)N[C@H](C(=O)N[C@@H](CCCCN)C(=O)N[C@@H](CC(=O)O)C(=O)N[C@@H](Cc1ccccc1)C(=O)N[C@@H](CC(C)C)C(=O)N[C@@H](CCCNC(=N)N)C(=O)N[C@@H](CC(N)=O)C(=O)N[C@@H](CC(C)C)C(=O)N[C@H](C(=O)N1CCC[C@H]1C(=O)N[C@@H](CCCNC(=N)N)C(=O)N[C@H](C(=O)N[C@@H](CCC(=O)O)C(=O)N[C@@H](CO)C(=O)O)[C@@H](C)O)C(C)C)[C@@H](C)CC)C(C)C)[C@@H](C)CC  MIC ratio (JE2 SAUSA300_1515 transposon mutant; 12.5% TSB; reference: wild type over mutant): 2 fold
COc1cc(NC(C)CCCN)c2nc(C(C)(C)C)ccc2c1Oc1ccc(Cl)c(Cl)c1 (centres unmarked)  IC50 (microbial growth; ATCC33591 MRSA; drug-resistant strain): 5.64 µg/mL (≈ 11.8 µM)
CC(C)C[C@H](NC(=O)[C@H](CCCNC(=N)N)NC(=O)[C@H](CCCCN)NC(=O)[C@@H](N)Cc1c[nH]c2ccccc12)C(=O)N[C@@H](CCCNC(=N)N)C(=O)N[C@@H](Cc1c[nH]c2ccccc12)C(=O)N[C@@H](CCCNC(=N)N)C(=O)N[C@@H](CCCNC(=N)N)C(=O)N[C@@H](Cc1ccccc1)C(=O)N[C@@H](Cc1ccccc1)C(=O)O  EC50 (bacterial killing, colony count; ATCC 12600; 1 h, pH 7, 37 °C): 16.5 µg/mL (≈ 10.6 µM)

For quick reference, copied from above:
CC[C@H](C)[C@H](NC(=O)[C@@H](NC(=O)CN)C(C)C)C(=O)N[C@@H](Cc1ccccc1)C(=O)N[C@@H](CC(N)=O)C(=O)N[C@@H](C)C(=O)N[C@@H](CC(C)C)C(=O)N[C@@H](CCCCN)C(=O)NCC(=O)N[C@H](C(=O)N[C@@H](C)C(=O)N[C@@H](CCCCN)C(=O)N[C@H](C(=O)N[C@H](C(=O)N[C@@H](C)C(=O)N[C@@H](C)C(=O)N[C@@H](CCC(N)=O)C(=O)N[C@@H](CC(C)C)C(=O)N[C@@H](CC(C)C)C(=O)N[C@@H](CCCCN)C(=O)N[C@@H](CCCCN)C(N)=O)C(C)C)[C@@H](C)O)C(C)C  MBEC (persister cells in biofilm; MRSA NCTC 12493; with: vancomycin 4 µg/mL): 64 µM
